Results collected from several papers.
± marks the error that the study gave.
U2AF2: U2AF2 148-342 (Homo sapiens, UniProt P26368)
Sequence of UniProt P26368 (whole entry, looked up): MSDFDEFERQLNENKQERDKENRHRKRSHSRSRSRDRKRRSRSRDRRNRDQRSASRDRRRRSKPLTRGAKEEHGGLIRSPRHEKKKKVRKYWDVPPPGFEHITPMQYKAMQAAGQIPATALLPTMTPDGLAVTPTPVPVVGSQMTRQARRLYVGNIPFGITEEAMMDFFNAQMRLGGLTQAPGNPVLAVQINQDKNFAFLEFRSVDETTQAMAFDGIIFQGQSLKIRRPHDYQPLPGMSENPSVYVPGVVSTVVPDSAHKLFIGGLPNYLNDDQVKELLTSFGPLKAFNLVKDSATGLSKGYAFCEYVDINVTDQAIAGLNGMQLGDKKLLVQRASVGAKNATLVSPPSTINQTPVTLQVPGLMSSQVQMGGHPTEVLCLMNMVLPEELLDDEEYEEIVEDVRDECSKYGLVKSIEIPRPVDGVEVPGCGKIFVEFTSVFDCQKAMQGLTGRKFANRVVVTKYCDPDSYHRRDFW
Tln2: Tln2 312-408 (Mus musculus, UniProt Q71LX4)
Sequence of UniProt Q71LX4 (whole entry, looked up): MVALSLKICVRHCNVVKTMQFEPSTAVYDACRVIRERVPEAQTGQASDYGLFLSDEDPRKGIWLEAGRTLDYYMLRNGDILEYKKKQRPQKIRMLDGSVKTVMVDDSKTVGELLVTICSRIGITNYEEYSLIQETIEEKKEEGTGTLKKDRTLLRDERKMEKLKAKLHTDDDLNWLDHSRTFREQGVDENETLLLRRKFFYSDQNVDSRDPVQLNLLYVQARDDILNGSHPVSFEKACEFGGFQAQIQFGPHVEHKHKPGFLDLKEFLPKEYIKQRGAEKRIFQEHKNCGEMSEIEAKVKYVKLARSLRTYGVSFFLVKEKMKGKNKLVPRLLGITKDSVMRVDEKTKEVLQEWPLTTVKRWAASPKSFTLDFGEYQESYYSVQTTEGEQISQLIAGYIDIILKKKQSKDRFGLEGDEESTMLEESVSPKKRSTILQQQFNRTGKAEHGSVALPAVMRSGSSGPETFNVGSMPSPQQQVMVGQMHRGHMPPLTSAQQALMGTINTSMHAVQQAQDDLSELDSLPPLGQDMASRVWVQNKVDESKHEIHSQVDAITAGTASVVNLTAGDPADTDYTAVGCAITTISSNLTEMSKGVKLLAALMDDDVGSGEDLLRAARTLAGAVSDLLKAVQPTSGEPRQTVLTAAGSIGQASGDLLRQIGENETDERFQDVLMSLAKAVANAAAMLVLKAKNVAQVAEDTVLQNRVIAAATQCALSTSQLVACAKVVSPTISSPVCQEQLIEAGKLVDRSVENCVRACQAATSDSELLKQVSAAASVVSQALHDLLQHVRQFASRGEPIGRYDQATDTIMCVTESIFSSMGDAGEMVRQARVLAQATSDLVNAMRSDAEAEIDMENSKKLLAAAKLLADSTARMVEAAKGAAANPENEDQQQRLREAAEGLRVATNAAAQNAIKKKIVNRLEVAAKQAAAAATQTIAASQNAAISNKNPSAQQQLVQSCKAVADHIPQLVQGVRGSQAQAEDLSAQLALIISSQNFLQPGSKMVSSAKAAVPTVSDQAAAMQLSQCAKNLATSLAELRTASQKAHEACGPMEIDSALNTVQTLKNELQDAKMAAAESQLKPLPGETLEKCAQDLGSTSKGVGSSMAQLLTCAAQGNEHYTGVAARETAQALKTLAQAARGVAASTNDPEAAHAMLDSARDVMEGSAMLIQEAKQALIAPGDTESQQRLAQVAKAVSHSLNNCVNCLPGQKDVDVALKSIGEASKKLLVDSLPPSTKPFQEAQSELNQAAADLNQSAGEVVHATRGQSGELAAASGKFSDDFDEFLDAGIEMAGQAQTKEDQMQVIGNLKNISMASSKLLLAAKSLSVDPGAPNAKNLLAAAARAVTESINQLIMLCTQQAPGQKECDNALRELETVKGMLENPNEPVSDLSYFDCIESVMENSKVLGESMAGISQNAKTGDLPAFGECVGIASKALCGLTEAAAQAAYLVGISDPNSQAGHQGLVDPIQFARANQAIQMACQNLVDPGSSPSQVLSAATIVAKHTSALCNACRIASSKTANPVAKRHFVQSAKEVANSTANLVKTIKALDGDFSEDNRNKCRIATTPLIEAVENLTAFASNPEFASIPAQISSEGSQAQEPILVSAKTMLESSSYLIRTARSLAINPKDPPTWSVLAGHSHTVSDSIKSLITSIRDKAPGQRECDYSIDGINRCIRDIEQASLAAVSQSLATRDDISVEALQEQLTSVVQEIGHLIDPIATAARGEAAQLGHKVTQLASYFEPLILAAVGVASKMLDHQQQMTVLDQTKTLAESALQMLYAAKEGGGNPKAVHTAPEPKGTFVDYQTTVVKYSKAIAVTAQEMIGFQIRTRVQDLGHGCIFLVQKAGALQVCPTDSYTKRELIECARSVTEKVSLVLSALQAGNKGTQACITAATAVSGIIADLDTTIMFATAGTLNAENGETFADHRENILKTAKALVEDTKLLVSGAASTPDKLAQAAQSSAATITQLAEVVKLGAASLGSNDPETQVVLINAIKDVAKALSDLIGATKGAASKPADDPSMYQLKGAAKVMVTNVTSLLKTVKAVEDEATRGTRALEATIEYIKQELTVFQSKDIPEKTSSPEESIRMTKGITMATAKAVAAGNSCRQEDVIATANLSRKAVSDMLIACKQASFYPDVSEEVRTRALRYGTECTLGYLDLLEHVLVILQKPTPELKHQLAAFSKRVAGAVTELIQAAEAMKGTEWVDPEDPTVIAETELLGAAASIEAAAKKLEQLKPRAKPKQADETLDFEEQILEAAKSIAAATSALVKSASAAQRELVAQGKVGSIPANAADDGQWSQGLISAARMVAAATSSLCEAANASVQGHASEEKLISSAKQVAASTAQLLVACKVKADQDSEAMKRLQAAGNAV
B1: F10 factor Xa (Homo sapiens, UniProt P00742); light ANSFLEEMKKGHLERECMEETCSYEEAREVFEDSDKTNEFWNKYKDGDQCETSPCQNQGKCKDGLGEYTCTCLEGFEGKNCELFTRKLCSLDNGDCDQFCHEEQNSVVCSCARGYTLADNGKACIPTGPYPCGKQTLER; heavy IVGGQECKDGECPWQALLINEENEGFCGGTILSEFYILTAAHCLYQAKRFKVRVGDRNTEQEEGGEAVHEVEVVIKHNRFTKETYDFDIAVLRLKTPITFRMNVAPACLPERDWAESTLMTQKTGIVSGFGRTHEKGRQSTRLKMLEVPYVDRNSCKLSSSFIITQNMFCAGYDTKQEDACQGDSGGPHVTRFKDTYFVTGIVSWGEGCARKGKYGIYTKVTAFLKWIDRSMKTRGLPKAKSHAPEVITSSPLK
B2: CDC48A 1-190 (Arabidopsis thaliana, UniProt P54609); chain MSTPAESSDSKSKKDFSTAILERKKSPNRLVVDEAINDDNSVVSLHPATMEKLQLFRGDTILIKGKKRKDTVCIALADETCEEPKIRMNKVVRSNLRVRLGDVISVHQCPDVKYGKRVHILPVDDTVEGVTGNLFDAYLKPYFLEAYRPVRKGDLFLVRGGMRSVEFKVIETDPAEYCVVAPDTEIFCEG
B3: ATG9 1-255 (Saccharomyces cerevisiae, UniProt Q12142); sequence looked up; chain MERDEYQLPNSHGKNTFLSRIFGLQSDEVNPSLNSQEMSNFPLPDIERGSSLLHSTNDSREDVDENDLRVPESDQGTSTEEEDEVDEEQVQAYAPQISDGLDGDHQLNSVTSKENVLETEKSNLERLVEGSTDDSVPKVGQLSSEEEEDNEFINNDGFDDDTPLFQKSKIHEFSSKKSNTIEDGKRPLFFRHILQNNRPQRDTQKLFTSSNAIHHDKDKSANNGPRNINGNQKHGTKYFGSATQPRFTGSPLNNT
B4: ADRM1 265-388 (Homo sapiens, UniProt Q16186); chain SDLQSILATMNVPAGPAGGQQVDLASVLTPEIMAPILANADVQERLLPYLPSGESLPQTADEIQNTLTSPQFQQALGMFSAALASGQLGPLMCQFGLPAEAVEAANKGDVEAFAKAMQNNAKPE
B5: RPRD1B 2-135 (Homo sapiens, UniProt Q9NQG5); chain SSFSESALEKKLSELSNSQQSVQTLSLWLIHHRKHAGPIVSVWHRELRKAKSNRKLTFLYLANDVIQNSKRKGPEFTREFESVLVDAFSHVAREADEGCKKPLERLLNIWQERSVYGGEFIQQLKLSMEDSKSP
B6: IL18 37-193 C74S/S101C/C104S/T109C/C112S/C163S (Homo sapiens, UniProt Q14116); chain YFGKLESKLSVIRNLNDQVLFIDQGNRPLFEDMTDSDSRDNAPRTIFIISMYKDSQPRGMAVTICVKSEKISCLSSENKIISFKEMNPPDNIKDTKSDIIFFQRSVPGHDNKMQFESSSYEGYFLASEKERDLFKLILKKEDELGDRSIMFTVQNED
B7: NRP1 (Arabidopsis thaliana); chain MVADKSKKSKIEEKGEEENLEQIDAELVLSIEKLQEIQDDLEKINEKASDEVLEVEQKYNVIRKPVYDKRNEVIQSIPGFWMTAFLSHPALGDLLTEEDQKIFKYLNSLEVEDAKDVKSGYSITFHFTSNPFFEDAKLTKTFTFLEEGTTKITATPIKWKEGKGLPNGVNHDDKKGNKRALPEESFFTWFTDAQHKEDAGDEIHDEVADIIKEDLWSNPLTYFNNDADEEDFDGDDDGDEEGEEDDDDEEEEDGEE
Sequence of UniProt Q23985 (whole entry, looked up): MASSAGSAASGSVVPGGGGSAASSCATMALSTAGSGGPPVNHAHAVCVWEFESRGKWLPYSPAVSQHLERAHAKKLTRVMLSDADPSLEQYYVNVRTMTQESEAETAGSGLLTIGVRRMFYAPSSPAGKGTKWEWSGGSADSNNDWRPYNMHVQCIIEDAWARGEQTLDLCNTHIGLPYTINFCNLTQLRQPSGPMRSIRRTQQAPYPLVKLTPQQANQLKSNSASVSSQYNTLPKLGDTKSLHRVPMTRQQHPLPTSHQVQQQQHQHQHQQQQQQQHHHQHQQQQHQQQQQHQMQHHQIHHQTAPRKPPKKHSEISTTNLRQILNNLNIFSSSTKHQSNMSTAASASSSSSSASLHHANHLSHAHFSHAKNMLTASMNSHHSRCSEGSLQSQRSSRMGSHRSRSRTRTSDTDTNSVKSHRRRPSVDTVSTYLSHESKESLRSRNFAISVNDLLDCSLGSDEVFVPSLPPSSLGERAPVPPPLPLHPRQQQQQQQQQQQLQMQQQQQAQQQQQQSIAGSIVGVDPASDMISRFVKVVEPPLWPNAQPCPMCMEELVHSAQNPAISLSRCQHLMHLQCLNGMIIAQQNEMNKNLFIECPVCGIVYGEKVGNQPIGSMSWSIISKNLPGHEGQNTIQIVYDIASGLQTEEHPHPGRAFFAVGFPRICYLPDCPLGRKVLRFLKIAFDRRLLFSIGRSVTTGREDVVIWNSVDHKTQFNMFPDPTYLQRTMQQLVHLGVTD
Sequence of UniProt Q8NBP7 (whole entry, looked up): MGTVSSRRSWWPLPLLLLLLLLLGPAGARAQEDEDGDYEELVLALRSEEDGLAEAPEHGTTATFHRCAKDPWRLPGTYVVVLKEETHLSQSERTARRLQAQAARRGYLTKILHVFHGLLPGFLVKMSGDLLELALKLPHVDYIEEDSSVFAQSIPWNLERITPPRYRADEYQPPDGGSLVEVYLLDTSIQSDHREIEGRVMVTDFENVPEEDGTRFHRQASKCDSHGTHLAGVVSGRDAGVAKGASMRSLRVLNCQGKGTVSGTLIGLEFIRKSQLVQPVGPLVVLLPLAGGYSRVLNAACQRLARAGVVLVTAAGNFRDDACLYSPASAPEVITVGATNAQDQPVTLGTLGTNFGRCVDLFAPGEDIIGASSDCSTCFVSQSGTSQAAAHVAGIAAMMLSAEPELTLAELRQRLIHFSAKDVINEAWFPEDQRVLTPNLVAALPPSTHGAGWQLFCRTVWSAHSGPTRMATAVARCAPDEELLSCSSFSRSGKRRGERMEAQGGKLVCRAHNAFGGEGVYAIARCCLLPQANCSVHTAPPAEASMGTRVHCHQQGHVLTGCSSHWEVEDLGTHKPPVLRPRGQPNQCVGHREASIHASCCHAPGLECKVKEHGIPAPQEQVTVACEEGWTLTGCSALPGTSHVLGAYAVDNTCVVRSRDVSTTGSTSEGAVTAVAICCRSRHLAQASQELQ
Sequence of UniProt Q4V3D3 (whole entry, looked up): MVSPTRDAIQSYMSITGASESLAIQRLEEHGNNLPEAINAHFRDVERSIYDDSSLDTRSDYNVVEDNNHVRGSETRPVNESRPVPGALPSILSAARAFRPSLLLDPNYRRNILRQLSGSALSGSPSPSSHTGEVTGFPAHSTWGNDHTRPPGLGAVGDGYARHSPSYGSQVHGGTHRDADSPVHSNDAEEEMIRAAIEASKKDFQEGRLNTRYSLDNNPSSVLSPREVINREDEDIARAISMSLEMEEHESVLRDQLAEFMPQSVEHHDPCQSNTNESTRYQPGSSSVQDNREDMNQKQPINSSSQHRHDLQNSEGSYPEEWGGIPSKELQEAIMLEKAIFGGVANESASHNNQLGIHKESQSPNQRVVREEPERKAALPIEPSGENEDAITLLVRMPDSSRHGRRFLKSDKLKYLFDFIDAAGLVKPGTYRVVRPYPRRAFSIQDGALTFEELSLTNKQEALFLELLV
Sequence of UniProt P13393 (whole entry, looked up): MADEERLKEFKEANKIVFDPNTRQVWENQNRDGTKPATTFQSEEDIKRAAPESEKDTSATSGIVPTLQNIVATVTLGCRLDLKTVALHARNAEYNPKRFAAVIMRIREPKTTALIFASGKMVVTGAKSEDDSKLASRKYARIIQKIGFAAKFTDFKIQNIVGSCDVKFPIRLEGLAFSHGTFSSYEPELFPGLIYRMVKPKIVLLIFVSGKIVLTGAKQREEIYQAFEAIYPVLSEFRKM

The Kd of `CACNA1C fragment (Oryctolagus cuniculus) (sequence not shown)` is reported as 1.4 µM (Prkaca (Mus musculus, UniProt P05132); ITC; pH 7.8, 25 °C).
For `B1 (F10 factor Xa)`, the Kd was 0.00115 ± 0.0002 µM (factor Va 29-334 R506Q (Homo sapiens, UniProt P12259); thrombin generation, prothrombinase activity titration).
The Kd of `HHT1 fragment` is reported as 1900 ± 400 µM (RTT106 residues 68-301 (Saccharomyces cerevisiae, UniProt P40161); NMR titration).
`Notch ankyrin domain H116A/R107A (Drosophila)` has a Kd of 14 µM (dx (Drosophila melanogaster, UniProt Q23985); AUC).
For `human histone deacetylase 2`, “log2 fold change” read 0.4 (CYB5R4 knockout human cells; PP4 interaction, 3xFLAG-PP4C IP-MS; concentration not given; reference: CYB5R4 KO over parental).
The Kd of `B2 (CDC48A 1-190)` is reported as 0.0058 ± 0.0001 µM (PUX9 (Arabidopsis thaliana, UniProt Q4V3D3); BLI; 25 °C).
`Talin-1 (human)`: “log2 fold change” -0.97 (PP6C (human); co-immunoprecipitation, IP-MS; CYB5R4 knockout cells; concentration not given; reference: CYB5R4 knockout over parental).
`ENAH EVH1 domain (Homo sapiens)` has a Kd of 40.2 µM (ABI3 peptide G5P (Homo sapiens); BLI).
With `HTN1 fragment alanine substitutions at 12-14` the Kd was 10.1 µM (TMEM97 (Homo sapiens, UniProt Q5BJF2); SPR).
The Kd of `B3 (ATG9 1-255)` is reported as 11 µM (ATG23 A34E (UniProt Q06671); BLI).
With `UBE2D2 (Homo sapiens, UniProt P62837)` the Kd was 475 ± 69 µM (NEDD4 HECT domain, Cy5 N-terminus (Homo sapiens); MST).
`FOLR3 (Homo sapiens, UniProt P41439)` has a Kd of 0.53 µM (HTRA1 (Homo sapiens, UniProt Q92743); BLI; simple kinetic fit).
`alirocumab, partial Asn deamidation` gave a Kd of 0.00062 µM (PCSK9 (Homo sapiens, UniProt Q8NBP7); SPR).
For `GSS fragment, C-terminal cyclic imide (Homo sapiens)`, the Kd was 0.00686 µM (CRBN/DDB1; FRET or BRET).
The Kd of `B4 (ADRM1 265-388)` is reported as 0.025 µM (UCHL5 M148A/F149A (Homo sapiens); ITC).
For `UAUGUUUAU (ssRNA)`, the Kd was 4.1 µM (U2AF2; sequencing of bound RNA; RNA; motif only).
`IgA1, galactose-deficient (Homo sapiens)` gave a Kd of 1.09 µM (TFRC 101-760 (Homo sapiens, UniProt P02786); SPR).
`CCAACCGGACTTTGGGGCTAGCGTTTAGAAAAGTCTCAAGTCAATCGGTCC (dsDNA; 5'-amino-C6 primer)` gave a Kd of 0.0388 ± 0.00566 µM (SPT15 full length assumed (Saccharomyces cerevisiae, UniProt P13393); array; double-stranded DNA, one strand shown; TBP alone).
For `B5 (RPRD1B 2-135)`, the Kd was greater than 1000 µM (RPAP2 (Homo sapiens, UniProt Q8IXW5); ITC; 25 °C).
`ARTKQTARKS (histone H3 1-10; K4me3)` gave a Kd of 3.45 ± 0.09 µM (ING1 163-234 E202A (Arabidopsis thaliana, UniProt Q9LIQ6); ITC; peptide).
`KLLMIIHDRREFAKFEKEKMNAKWDTGENPIYKSAINNFKNPNYGRKAGL (ITGB1 752-801 Q778G/P786A (Homo sapiens, UniProt P05556-5); sequence looked up)` has a Kd of 369 µM (Tln2; NMR titration).
`EYGIQRITC (IL1RAP 152-160 (Homo sapiens); acetylated N-terminus/C-terminal amide)` has a Kd of 57 µM (IL1RL1/IL33 ST2 , IL-33 19-328; SPR; peptide).
For `B6`, the Kd was 1.1e-05 µM (IL18BP (Homo sapiens, UniProt O95998); SPR).
`YL-1 fragment (Drosophila melanogaster)` gave a Kd of 6.3 µM (H2A/H2B dimer (Homo sapiens); ITC).
`KLLMIIHDRREFAKFEKEKMNAKWDTQENPIYKSPVTTVVNPKYEGK (ITGB1 752-798 G778Q/A786P (Homo sapiens, UniProt P05556-1); sequence looked up)` gave a Kd of 57 µM (Tln2; NMR titration).
For `WGSGGVEPQKFAEELIHRLEAVQRTREAEEKLEERLKRVRMEEEGEDGDPSSGPPGPC (AXIN1 383-435 (Homo sapiens); HiLyte488 label)`, the Kd was 0.00074 µM (Gsk3b 26-383 (Mus musculus, UniProt Q9WV60); fluorescence polarisation).
For `CUUCUUGCU (ssRNA)`, the Kd was 3.26 µM (U2AF2; sequencing of bound RNA; RNA; motif only).
`B7 (NRP1)` gave a Kd of 0.51 µM (H2A/H2B dimer (Gallus gallus); SPR).
